Experimental data collected from several papers.
Every numbered part comes from another study and shows a few of its results, in no order.

Sample 1
Target: Runt-related transcription factor 3, Runt domain (RUNX3, Homo sapiens, UniProt Q13761, residues 53-186)
UniProt Q13761, sequence (53-186, looked up): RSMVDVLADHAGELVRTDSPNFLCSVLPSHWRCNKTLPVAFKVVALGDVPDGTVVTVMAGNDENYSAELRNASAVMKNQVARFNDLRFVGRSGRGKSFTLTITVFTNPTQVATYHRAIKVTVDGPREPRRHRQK
Method: protein-binding microarray
Form: hairpin DNA
Sample: in vitro
Tested at: not given
Setting: whole hairpin DNA, median over replicate spots
Reference: not given
Reading: higher = stronger binding
The median fluorescence of `GAGGCCCGACCGCAACAGCCTCCTGGCTGTTGCGGTCGGGCCTCACACTC` is reported as 8710 a.u.
With `GAGGCCTGTCGTGGTTGGCCTCCTGGCCAACCACGACAGGCCTCACACTC (5mC at 10)` the median fluorescence was 5860 a.u.
The median fluorescence of `GAGGCCTGTTGGGGTTGGCCTCCTGGCCAACCCCAACAGGCCTCACACTC` is reported as 4890 a.u.
With `GAGGCCCAACCCGAACAGCCTCCTGGCTGTTCGGGTTGGGCCTCACACTC (5mC at 12 32)` the median fluorescence was 5280 a.u.
For `CTCAGATCTGTGGGCTGGACTCCTGTCCAGCCCACAGATCTGAGACACTC`, the median fluorescence was 3770 a.u.
For `GAGGCCCCACCGCAACAGCCTCCTGGCTGTTGCGGTGGGGCCTCACACTC`, the median fluorescence was 6920 a.u.
For `GAGGCCTGTTGCCGTTGGCCTCCTGGCCAACGGCAACAGGCCTCACACTC (5mC at 13 31)`, the median fluorescence was 4750 a.u.
For `CTCAGTTCTGGGGGCTGGACTCCTGTCCAGCCCCCAGAACTGAGACACTC (5mC at 34)`, the median fluorescence was 4160 a.u.
The median fluorescence of `CTCAGTTCTGCGGGCTGGACTCCTGTCCAGCCCGCAGAACTGAGACACTC (5mC at 11 33)` is reported as 4130 a.u.
For `GAGGCCCAACCCGAACAGCCTCCTGGCTGTTCGGGTTGGGCCTCACACTC (5mC at 32)`, the median fluorescence was 5020 a.u.
`GAGGCCTGTTGTGGCGGGCCTCCTGGCCCGCCACAACAGGCCTCACACTC (5mC at 29)` has a median fluorescence of 5070 a.u.
`GAGGCCGAACCGCAACAGCCTCCTGGCTGTTGCGGTTCGGCCTCACACTC (5mC at 38)` gave a median fluorescence of 7120 a.u.
For `GAGGCCTGTTGCGGTTTGCCTCCTGGCAAACCGCAACAGGCCTCACACTC`, the median fluorescence was 9890 a.u.
For `GAGGCCCGTCGCGGTTGGCCTCCTGGCCAACCGCGACGGGCCTCACACTC (5mC at 7)`, the median fluorescence was 6490 a.u.
With `GAGGCCTGTTGTGGTAGGCCTCCTGGCCTACCACAACAGGCCTCACACTC` the median fluorescence was 4570 a.u.

Sample 2
Target: RING finger protein unkempt homolog, zinc fingers 1-6, SBP tag (UNK, Homo sapiens, UniProt Q9C0B0, residues 30-357)
UniProt Q9C0B0, sequence (30-357, looked up): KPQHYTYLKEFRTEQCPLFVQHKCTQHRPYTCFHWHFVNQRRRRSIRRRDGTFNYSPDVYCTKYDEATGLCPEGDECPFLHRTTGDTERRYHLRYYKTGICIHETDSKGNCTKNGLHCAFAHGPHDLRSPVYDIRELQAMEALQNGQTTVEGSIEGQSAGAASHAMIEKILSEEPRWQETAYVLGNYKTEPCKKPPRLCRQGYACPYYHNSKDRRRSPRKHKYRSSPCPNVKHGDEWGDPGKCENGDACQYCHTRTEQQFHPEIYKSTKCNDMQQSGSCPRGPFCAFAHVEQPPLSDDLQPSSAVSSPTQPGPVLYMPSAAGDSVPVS
Method: RNA Bind-n-Seq
Form: RNA
Sample: in vitro
Tested at: 100 nM
Setting: RNA with constant flanks, vertebrate orthologous sites, ends assumed
Reference: input RNA pool
Reading: higher = stronger binding
For `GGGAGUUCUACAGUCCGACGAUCGCUCUAGUUCUUAACAACCGACACUCCCAAAAGAUUUAGAAAAAAGUUUACGACAUAAUCUAGUUUACAGAAAAAUCUUGUGCUAGAAUACUUUUUAAAAGGUAUUUUGAAUAUCAUUAACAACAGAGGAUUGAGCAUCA`, the bound/input enrichment was 0.831 ratio.
The bound/input enrichment of `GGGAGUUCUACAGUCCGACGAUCUAUCUUUAGGAUGAAGCUCUUACAUCAGGUGUCACAAGUCUGGAGAACAGAUGGGUUGACUAGUUGUAUUUAUAAAUUACUCUCUGUGGAUUAUAAUCCUUUAUAUACCAACAUCACGGUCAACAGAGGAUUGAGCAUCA` is reported as 0.539 ratio.
The bound/input enrichment of `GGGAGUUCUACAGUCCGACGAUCAGUUUGUAUGUACAUUAUUCACAUUCCUCUCUGAUGUGUUUGGGGGAAAAAAAGACAUUUUAGCCUUUUUUAAGGUUAUUGACUUAAUUUCAUGUUAUUUGGUUGCAUGAAGUUGCCCUUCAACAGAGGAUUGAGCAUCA` is reported as 0.362 ratio.
The bound/input enrichment of `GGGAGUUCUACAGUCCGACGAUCAAGUAUCCCAGUUUACCGUGUUGAGUUGGCAUUGUACAGAAAUUAACAGCCAUAUUGGUCUAGAAAUGUUAAACUUAAUUUUUUUCCAUUUGUACAGGGGUAACGCACUGUAUUAAAUAUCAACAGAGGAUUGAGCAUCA` is reported as 0.523 ratio.
`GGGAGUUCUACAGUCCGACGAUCCAGCAUCCUUUCAUACCAUCCUGGGCCAGCACCAGGGUCGAUGUCUCAAUCCACCUAUGUUUAGAACAUUUUUUAAAUCGUUGUGUCUGAGCAUCUCAGAGUCAGGUGUGUCUUUGCAAACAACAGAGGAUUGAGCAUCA` has a bound/input enrichment of 0.631 ratio.
`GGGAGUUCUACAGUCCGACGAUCUCCUUUCACACUGUCCCCAACAGAGCUGAUAAACUUAGUUCUUUCACUGAAGACUCGCAACUGAGACAAUUUUUUAAAUUGCUAUACAAAGAGAGAUGUGACUAAAACACAAUCUCAAAACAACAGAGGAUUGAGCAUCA` gave a bound/input enrichment of 0.408 ratio.
`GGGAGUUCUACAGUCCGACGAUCUUCAGUCUCCUGGUCCAGGAAACUUAUUUUUUAACAUCUUGAAAUUUAACUCUGUGCUUGAAGAAGACUGUAACCUUUUUGUCUGUUUUGUUUUUGUUUUUAAACAUACAAUCUCCACCUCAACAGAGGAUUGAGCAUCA` has a bound/input enrichment of 0.267 ratio.
The bound/input enrichment of `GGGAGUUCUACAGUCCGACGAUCAGCAACCCAAGGAUUCAGGACUGGUUUUACAAAUAUACCAAGUCGAUAUGGAACUAACAGUAGAAUUGGACAACCAAGACCAUGAUGUUCUCUAACUUAUUUUUAUGAGGAAUACUGACUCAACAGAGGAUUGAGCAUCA` is reported as 0.348 ratio.
The bound/input enrichment of `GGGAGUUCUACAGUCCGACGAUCCCUGCUCCUCCUGGGUGUGUGACCGCGGGGGGAGUGUCCACCAGCGCUGCAGGGGGGCCGUGGUAUUUUUUUGCUGCCUCAGUCCCCAGAGCCUUCGAGCAGAAGUGGCAGUACGCUGUUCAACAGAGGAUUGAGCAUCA` is reported as 0.277 ratio.
`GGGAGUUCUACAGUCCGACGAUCAGUCAUUUAUAGCAAUUACAGUGGGUUGCCCCUCUACCUCUCCCAAGAAGGAAUCCCAAAUAGAUUCCUUUCAUGUCAGAUUAUACUGUUCUGAUUUUAUUUUCUAUUAUUUUUACAUAUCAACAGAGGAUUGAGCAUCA` gave a bound/input enrichment of 1.75 ratio.
For `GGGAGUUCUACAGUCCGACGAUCUCCCCUAUUACCUGUAAAAUAGAACUUUUUUAAAUUGUGUUGCCACCACUCCUAAAAAUUUAGCAAUAUUUAAAUAAAACACUAAUGAAGUAAGAAAUUUUGCUUCUUAUUUUACAACCACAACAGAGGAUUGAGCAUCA`, the bound/input enrichment was 2.84 ratio.

Sample 3
Target: Centromere-binding protein 1, full length, His-tagged (CBF1, Saccharomyces cerevisiae, UniProt P17106, residues 1-351)
UniProt P17106, sequence (whole entry, looked up): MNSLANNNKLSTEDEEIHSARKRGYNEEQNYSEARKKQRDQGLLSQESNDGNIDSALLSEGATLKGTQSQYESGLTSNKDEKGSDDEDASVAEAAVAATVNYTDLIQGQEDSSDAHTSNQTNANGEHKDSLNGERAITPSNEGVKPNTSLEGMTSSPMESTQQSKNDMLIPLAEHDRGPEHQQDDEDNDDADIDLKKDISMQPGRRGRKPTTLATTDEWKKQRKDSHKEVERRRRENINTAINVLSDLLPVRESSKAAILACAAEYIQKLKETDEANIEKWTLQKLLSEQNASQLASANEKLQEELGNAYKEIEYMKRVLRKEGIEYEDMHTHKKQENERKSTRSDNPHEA
Method: competition protein-binding microarray
Form: double-stranded DNA, one strand shown
Sample: in vitro
Tested at: 2 µM
Setting: whole 60-bp probe, lowest competitor level
Added: Pho4 competitor, 0.05 µM
Reading: higher = stronger binding
With `CGTCCTAGTGATTGGCATGTGGGTGCCATGAGGAAGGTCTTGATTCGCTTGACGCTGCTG` the fluorescence intensity was 99.9 a.u.
With `GGCGCAAATAGTTGCCACGTGCGATTGCGGTGTATGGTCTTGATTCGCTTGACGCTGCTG` the fluorescence intensity was 1420 a.u.
`ACACCATATGGTGCACCCGTGCTGTTTGTCACTGCCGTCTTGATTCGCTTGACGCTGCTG` has a fluorescence intensity of 101 a.u.
The fluorescence intensity of `CTTTCCCGATCTTGCGTTGTGGGTGTAGCACATTTGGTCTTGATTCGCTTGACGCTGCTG` is reported as 68.9 a.u.
`CTAACGAAGGTTTGGTTCGTGGGTGACAAGCCAAGTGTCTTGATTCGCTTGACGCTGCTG` gave a fluorescence intensity of 56.2 a.u.
`CCTAGCACTCGCTATTTCGTGACGGCGTTCCAGGACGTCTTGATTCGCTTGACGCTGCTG` gave a fluorescence intensity of 70.2 a.u.
`ACCATCACAATTCGTCACGTGCAAATTAGTCCAGTCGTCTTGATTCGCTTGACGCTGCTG` has a fluorescence intensity of 7430 a.u.
`CTTCTGTAAATTTGGTTGGTGGGTGGACGCGCCCCGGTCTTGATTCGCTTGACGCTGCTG` gave a fluorescence intensity of 85.3 a.u.
With `CTAACGAAGGTTTGCGCGGTGGGTGACAAGCCAAGTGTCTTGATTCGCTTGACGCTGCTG` the fluorescence intensity was 59.6 a.u.
For `CATACCCAACCTTCACACGTGTTTTAAGATATTTGTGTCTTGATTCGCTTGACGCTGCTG`, the fluorescence intensity was 1190 a.u.
The fluorescence intensity of `TGGACGCAATTGGTTGGTGTGACGCCACTTTCTCTTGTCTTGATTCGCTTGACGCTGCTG` is reported as 79.9 a.u.
The fluorescence intensity of `AAAGCGGTAATTTGGCGGGTGGGTGCAGATATCTATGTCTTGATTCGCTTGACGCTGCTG` is reported as 74.1 a.u.
`GTCCCAAGCAGCTTCATCGTGATGGTCTCCTTCAGGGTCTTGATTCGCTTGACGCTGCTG` gave a fluorescence intensity of 65.8 a.u.
For `AAATTACTAAGTTGCAGTGTGGGTGACGCCGTATGAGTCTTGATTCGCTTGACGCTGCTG`, the fluorescence intensity was 69.8 a.u.
`GGTTCTCAAAGCAGCAACGTGCTTTCTGCCACCGTTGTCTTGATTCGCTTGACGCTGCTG` gave a fluorescence intensity of 120 a.u.
`CTAACGAAGGTTTGAGTTGTGGGTGACAAGCCAAGTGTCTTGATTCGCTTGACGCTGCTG` gave a fluorescence intensity of 71.7 a.u.

Sample 4
Target: Histone acetyltransferase KAT6A, winged helix 2, GST fusion (KAT6A, Homo sapiens, UniProt Q92794, residues 85-181)
Method: protein binding microarray
Form: double-stranded DNA, one strand shown
Sample: in vitro
Tested at: not given
Setting: 8-mer, flanks averaged, mean of 2 arrays, mostly near background
Reference: not given
Reading: higher = stronger binding
Construct (chain): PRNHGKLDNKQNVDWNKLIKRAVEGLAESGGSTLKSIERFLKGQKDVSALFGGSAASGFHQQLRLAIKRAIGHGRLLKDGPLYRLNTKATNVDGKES
`CTATAAAG` has an E-score of -0.194.
For `AATAGTCA`, the E-score was 0.0113.
The E-score of `ATAGTAAT` is reported as 0.0631.
For `ACTGAATG`, the E-score was -0.122.
`GTCCGTAA` gave an E-score of 0.0507.
`GCACCCCC` has an E-score of -0.0182.
For `CTTTCTCC`, the E-score was 0.0891.
`AGCCCGTG` gave an E-score of 0.091.
`GTGTTAAA` has an E-score of -0.0345.
The E-score of `GGAGATGA` is reported as 0.00971.
`GTAACGAC` gave an E-score of -0.101.
The E-score of `ATAGGTCA` is reported as -0.115.
For `CGGCATTC`, the E-score was 0.13.
`AATTCCCT` gave an E-score of -0.0861.
The E-score of `CCCAAGAG` is reported as 0.0892.
The E-score of `ACATCGAA` is reported as 0.00988.
The E-score of `GGACTAGA` is reported as -0.0676.
`AACAATCT` has an E-score of 0.0458.
The E-score of `CGAGCCCC` is reported as 0.0115.
`CCTCATTC` gave an E-score of 0.00872.
`GCTCCGTA` has an E-score of 0.0372.
With `GGTTATGA` the E-score was -0.0919.

Sample 5
Target: Sal-like protein 4, full length isoform A (SALL4, Homo sapiens, UniProt Q9UJQ4, residues 1-1053)
UniProt Q9UJQ4, sequence (whole entry, looked up): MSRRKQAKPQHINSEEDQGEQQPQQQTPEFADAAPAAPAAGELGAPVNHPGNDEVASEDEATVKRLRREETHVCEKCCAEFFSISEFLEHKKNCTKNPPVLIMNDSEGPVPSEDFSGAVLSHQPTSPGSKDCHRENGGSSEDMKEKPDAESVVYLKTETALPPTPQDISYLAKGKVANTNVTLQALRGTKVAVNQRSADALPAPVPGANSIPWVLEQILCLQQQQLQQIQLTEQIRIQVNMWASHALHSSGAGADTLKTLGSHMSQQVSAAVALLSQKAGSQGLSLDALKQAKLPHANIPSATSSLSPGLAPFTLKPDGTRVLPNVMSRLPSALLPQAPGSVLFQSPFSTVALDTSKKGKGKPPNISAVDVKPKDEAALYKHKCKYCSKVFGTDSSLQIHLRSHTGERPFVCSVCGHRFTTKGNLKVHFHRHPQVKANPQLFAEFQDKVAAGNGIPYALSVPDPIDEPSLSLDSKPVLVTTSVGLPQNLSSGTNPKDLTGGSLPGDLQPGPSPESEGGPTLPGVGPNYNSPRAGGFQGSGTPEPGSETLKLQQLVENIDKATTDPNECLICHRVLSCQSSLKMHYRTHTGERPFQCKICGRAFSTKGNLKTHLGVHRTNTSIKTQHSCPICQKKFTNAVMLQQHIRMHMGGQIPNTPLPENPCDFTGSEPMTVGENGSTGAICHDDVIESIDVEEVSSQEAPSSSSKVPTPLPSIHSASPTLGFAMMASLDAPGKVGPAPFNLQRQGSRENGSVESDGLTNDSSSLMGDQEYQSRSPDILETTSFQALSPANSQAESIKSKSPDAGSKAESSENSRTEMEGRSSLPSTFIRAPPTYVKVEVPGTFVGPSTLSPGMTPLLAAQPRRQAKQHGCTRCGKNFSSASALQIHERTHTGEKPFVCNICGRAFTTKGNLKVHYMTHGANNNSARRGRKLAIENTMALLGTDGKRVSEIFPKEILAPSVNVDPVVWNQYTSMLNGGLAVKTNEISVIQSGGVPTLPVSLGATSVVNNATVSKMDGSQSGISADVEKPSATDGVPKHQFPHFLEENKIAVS
Method: universal PBM
Form: double-stranded DNA, one strand shown
Sample: in vitro
Tested at: 600 nM
Setting: 8-mer, flanks averaged, mean of replicates
Reading: higher = stronger binding
`ATCCACAG` has an E-score of -0.0345.
With `GTGTGAAC` the E-score was -0.0892.
`GCCGAAAA` gave an E-score of 0.00528.
For `ATTAACTA`, the E-score was 0.276.
`TCCACTCA` gave an E-score of 0.00434.
`GAAGGTAC` gave an E-score of -0.00193.
`ATGTATCC` has an E-score of 0.153.
For `CCTGCAGC`, the E-score was -0.11.
With `GGAGAGTA` the E-score was 0.122.
For `AAGCCACT`, the E-score was -0.102.
With `AACAGTTG` the E-score was -0.0427.
`AGCTTTTG` has an E-score of 0.0995.
The E-score of `GCTTCGAC` is reported as -0.181.
The E-score of `TACGAAAA` is reported as 0.278.
With `GTATAGAC` the E-score was 0.224.
`ATACTTCC` has an E-score of 0.158.
The E-score of `CGGCTGCC` is reported as -0.331.
The E-score of `AAGTTACC` is reported as 0.0429.
`ACTGGGTC` has an E-score of -0.241.
The E-score of `AAAGCTAC` is reported as -0.05.
`AAATCTAT` gave an E-score of 0.302.
With `GAATGCCC` the E-score was -0.223.
With `CGATAGAA` the E-score was 0.0768.
